Measured values pooled from the literature.
Protocols differ between the studies behind these lines.

SMILES | assay | system | setting | scale | Cmax ratio
C=CC(=O)NC1CCN(c2ncc3ncnc(Nc4ccc(Oc5ccc6c(c5)ncn6C)c(C)c4)c3n2)CC1 |  | healthy male humans, plasma | oral, together with: carbamazepine | relative to: with over without carbamazepine | 58.8%
CC(C)[C@@H]1CC[C@@H](C)C[C@H]1OC(=O)O[C@@H](C)OC(=O)[C@H]1[C@@H]2C[C@H](F)[C@@](N)(C(=O)O)[C@@H]21 |  | human, plasma | oral, 10 mg, single dose | relative to: fed over fasted | 0.553
N#CCNC(=O)c1ccc(-c2ccnc(Nc3ccc(N4CCOCC4)cc3)n2)cc1 |  | healthy human volunteers, plasma | oral, together with: multiple-dose rifampin | relative to: compound alone | 99.1%
COc1ccc2nc([S@@+]([O-])Cc3ncc(CO)c(OC)c3C)[nH]c2c1 |  | human | mean over sessions | relative to: (R)-OH-omeprazole over compound | 7.1 fold
CC(C)c1nc(N(C)S(C)(=O)=O)nc(-c2ccc(F)cc2)c1/C=C/[C@@H](O)C[C@@H](O)CC(=O)O |  | healthy human volunteers, plasma | oral, BCRP probe substrate, together with: momelotinib | relative to: compound alone | 323%
C[C@H](Oc1ccc(Br)cc1-c1ccon1)C(=O)O |  | human, plasma | 800 mg single dose | relative to: fed over fasted | 1.08
CC(C)=CCC/C(C)=C/CC/C(C)=C/CC[C@@](C)(O)CCC1=C(C)C(=O)C(C)=C(C)C1=O |  | human, plasma | oral, together with: itraconazole | relative to: with over without itraconazole | 345%
CCCCC1=NC2(CCCC2)C(=O)N1Cc1ccc(-c2ccccc2S(=O)(=O)Nc2noc(C)c2C)c(COCC)c1 |  | healthy humans, plasma | oral, 200 mg | relative to: fed over fasted | 1.22
COc1cc2nccc(Oc3ccc(NC(=O)c4cc5c(n(-c6ccccc6)c4=O)CCCC5=O)nc3)c2cc1OC | food effect | human | oral, 6 mg | relative to: day 57 over day 28 | 0.89
C=CC(=O)NC1CCN(c2ncc3ncnc(Nc4ccc(Oc5ccc6c(c5)ncn6C)c(C)c4)c3n2)CC1 |  | human, male, plasma | oral, 240 mg, adjusted geometric means | relative to: fed over fasted | 126%
N[C@]1(C(=O)O)[C@H]2[C@@H](C[C@@H]1F)[C@@H]2C(=O)O |  | human, both sexes, plasma | oral, 10 mg, single dose | relative to: fed over fasted | 0.427
NC1(C(=O)N[C@@H](CCO)c2ccc(Cl)cc2)CCN(c2nc[nH]c3nccc2-3)CC1 |  | human, plasma | together with: with or without enzalutamide | relative to: cycle 2 over cycle 0 | 0.64

A few entries again:
SMILES | assay | system | setting | scale | Cmax ratio
CC(C)=CCC/C(C)=C/CC/C(C)=C/CC[C@@](C)(O)CCC1=C(C)C(=O)C(C)=C(C)C1=O |  | human, plasma | oral, together with: itraconazole | relative to: with over without itraconazole | 345%
